# Published values of several laboratories.
# pIC50: −log10 of the molar value.
# Chain of UniProt P42336 (whole entry, unmodified, looked up): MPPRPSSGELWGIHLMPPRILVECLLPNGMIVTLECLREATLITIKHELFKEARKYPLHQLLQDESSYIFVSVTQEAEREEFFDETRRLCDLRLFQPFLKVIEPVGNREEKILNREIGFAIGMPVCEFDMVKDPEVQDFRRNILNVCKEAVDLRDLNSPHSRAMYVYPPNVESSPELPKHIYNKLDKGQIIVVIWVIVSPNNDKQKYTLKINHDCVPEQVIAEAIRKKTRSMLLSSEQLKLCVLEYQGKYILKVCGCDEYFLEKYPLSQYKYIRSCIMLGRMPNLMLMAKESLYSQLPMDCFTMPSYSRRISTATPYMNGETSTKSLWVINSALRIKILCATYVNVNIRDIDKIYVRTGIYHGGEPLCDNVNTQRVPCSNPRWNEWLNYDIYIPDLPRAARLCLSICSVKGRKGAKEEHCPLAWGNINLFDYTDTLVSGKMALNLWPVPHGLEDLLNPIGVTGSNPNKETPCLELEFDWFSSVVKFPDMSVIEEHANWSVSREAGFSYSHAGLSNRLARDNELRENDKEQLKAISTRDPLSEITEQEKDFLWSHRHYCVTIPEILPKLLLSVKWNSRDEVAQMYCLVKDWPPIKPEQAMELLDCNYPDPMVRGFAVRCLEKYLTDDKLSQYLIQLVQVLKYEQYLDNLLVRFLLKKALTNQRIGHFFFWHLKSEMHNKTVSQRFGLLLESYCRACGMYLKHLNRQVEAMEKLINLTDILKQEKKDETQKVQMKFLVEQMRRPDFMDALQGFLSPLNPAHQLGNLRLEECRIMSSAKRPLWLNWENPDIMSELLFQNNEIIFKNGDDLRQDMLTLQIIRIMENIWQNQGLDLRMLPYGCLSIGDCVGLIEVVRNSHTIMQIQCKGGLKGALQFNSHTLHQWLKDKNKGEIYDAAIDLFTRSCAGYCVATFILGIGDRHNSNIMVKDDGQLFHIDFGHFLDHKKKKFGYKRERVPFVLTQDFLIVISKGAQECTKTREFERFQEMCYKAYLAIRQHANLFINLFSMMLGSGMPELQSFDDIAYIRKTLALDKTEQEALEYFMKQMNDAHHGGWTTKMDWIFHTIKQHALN
# Chain of UniProt Q6PHR2 (whole entry, looked up): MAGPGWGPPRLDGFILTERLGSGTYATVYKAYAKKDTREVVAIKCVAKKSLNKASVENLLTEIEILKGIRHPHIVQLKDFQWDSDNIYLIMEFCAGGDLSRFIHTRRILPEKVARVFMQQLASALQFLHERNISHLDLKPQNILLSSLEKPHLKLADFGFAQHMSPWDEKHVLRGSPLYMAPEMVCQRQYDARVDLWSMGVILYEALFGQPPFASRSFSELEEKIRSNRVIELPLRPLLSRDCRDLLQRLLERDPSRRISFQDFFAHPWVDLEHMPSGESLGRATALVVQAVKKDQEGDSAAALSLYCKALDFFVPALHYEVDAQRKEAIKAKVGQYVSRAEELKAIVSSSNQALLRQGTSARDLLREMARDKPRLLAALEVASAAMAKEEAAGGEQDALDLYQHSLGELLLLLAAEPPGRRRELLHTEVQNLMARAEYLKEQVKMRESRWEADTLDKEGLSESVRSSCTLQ
# Chain of UniProt Q15835 (whole entry, looked up): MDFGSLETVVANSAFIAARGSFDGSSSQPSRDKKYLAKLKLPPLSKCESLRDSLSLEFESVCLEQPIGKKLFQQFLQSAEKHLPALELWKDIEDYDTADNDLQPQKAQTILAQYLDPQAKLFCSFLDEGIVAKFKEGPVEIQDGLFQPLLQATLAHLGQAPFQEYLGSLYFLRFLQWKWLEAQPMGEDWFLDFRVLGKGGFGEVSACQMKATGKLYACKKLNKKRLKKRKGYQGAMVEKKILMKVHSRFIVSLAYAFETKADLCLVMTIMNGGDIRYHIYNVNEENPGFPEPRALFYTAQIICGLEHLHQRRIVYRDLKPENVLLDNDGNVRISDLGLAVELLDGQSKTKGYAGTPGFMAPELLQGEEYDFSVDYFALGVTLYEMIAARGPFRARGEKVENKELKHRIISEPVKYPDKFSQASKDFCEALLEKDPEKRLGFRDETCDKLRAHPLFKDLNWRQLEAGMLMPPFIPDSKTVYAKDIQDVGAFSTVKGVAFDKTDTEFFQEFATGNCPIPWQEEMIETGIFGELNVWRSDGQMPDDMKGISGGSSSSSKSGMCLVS
# Chain of UniProt Q9BRS2 (whole entry, looked up): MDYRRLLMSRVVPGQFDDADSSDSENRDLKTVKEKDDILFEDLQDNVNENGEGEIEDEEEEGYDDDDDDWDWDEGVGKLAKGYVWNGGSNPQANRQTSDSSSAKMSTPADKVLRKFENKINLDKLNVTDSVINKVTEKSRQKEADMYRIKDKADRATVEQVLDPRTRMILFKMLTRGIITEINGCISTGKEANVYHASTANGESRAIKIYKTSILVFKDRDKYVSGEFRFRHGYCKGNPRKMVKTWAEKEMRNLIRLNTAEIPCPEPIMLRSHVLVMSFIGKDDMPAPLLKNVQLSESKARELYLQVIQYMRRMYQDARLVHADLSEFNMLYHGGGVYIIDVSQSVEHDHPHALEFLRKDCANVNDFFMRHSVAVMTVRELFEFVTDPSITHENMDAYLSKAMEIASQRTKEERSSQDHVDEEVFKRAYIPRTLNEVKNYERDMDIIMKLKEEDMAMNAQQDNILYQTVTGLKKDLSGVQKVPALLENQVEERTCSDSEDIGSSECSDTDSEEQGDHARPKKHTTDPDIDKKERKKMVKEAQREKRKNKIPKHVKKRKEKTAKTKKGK
Structure (SMILES),tested on,test,test system,setting,endpoint,result
CC(C)C[C@H](NC(=O)[C@H](Cc1ccccc1)NC(=O)[C@H](Cc1ccccc1)NC(=O)Cc1ccc(-c2ccccc2)cc1)C(=O)N[C@@H](CCCCN)C(=O)N[C@@H](CCCNC(=N)N)C(=O)N[C@H](C(=O)N[C@@H](Cc1c[nH]c2ccccc12)C(=O)N[C@@H](CCCCN)C(=O)N[C@@H](CCCNC(=N)N)C(=O)O)C(C)C,,metabolic stability,"mouse, liver microsomes",1 µM,half-life,4.04 min
N.N.[Cl][Pt][Cl],JVM13,"cell growth or viability, ATP luminescence",,72 h,pIC50,6.24
CC(C)CC(=O)OC[C@H]1O[C@@](C#N)(c2ccc3c(N)ncnn23)[C@H](O)[C@@H]1O,,metabolic stability,"rat, hepatocytes",5 µM,half-life,< 4.36 min
CCC[C@@](N)(CO)CCc1ccc(OCCCCCC(C)C)cc1,,,"dog, plasma","intravenous, 1 mg/kg",C0,89.4 nM
CC[C@H](C)[C@@H]1NC(=O)[C@H]2CCCN2C(=O)[C@@H](CC(C)C)NC(=O)CNC(=O)[C@H]2CCCN2C(=O)[C@@H](Cc2ccc(O)cc2)NC(=O)CNC(=O)[C@H](CO)NC(=O)[C@H](C(C)C)NC(=O)[C@H](CC(C)C)NC1=O,,,aqueous buffer,"18 h, pH 7.4",thermodynamic solubility,911 µM
COc1ncccc1-c1cnn2ccc(N3CCN(C(=O)OC(C)C)CC3)nc12,"Rhodopsin kinase GRK1 (GRK1, Homo sapiens, UniProt Q15835)","binding, competition with immobilised ligand",,1 µM,remaining binding,100%
[2H]c1c([2H])c([C@]2([2H])CCCN2C(=O)C(C)(C)Oc2ccc3cn[nH]c3c2)c([2H])c([2H])c1C([2H])([2H])[2H],"Serine/threonine-protein kinase RIO1 (RIOK1, Homo sapiens, UniProt Q9BRS2)","binding, competition with immobilised ligand",,1 µM,remaining binding,78%
CC(C)C[C@@H]1NC(=O)[C@H]([C@@H](C)O)NC(=O)[C@H](C(C)C)NC(=O)[C@H](CC(C)C)NC(=O)[C@@H](C(C)C)N(C)C(=O)[C@H]2CCCN2C(=O)[C@@H](N)CSSC[C@@H](C(=O)O)NC(=O)[C@H]2CCCN2C(=O)[C@H](Cc2ccccc2)NC1=O,,,aqueous buffer,"18 h, pH 7.4",solubility,692 µM
Cc1[nH]c(C)c(S(=O)(=O)Nc2ccc(S(F)(F)(F)(F)F)c(Cl)c2)c1C(=O)N1CCC(F)(F)C1,,metabolic stability,"mouse, liver microsomes",,half-life,27 min
CC[C@@H]1NC(=O)[C@H](CC(C)C)NC(=O)[C@H](CC(C)C)NC(=O)CNC(=O)[C@@H](Cc2ccc(O)cc2)NC(=O)[C@H]2CCCN2C(=O)[C@H](CCCNC(=N)N)NC(=O)[C@H](C(C)C)NC(=O)[C@H](CC(C)C)NC(=O)[C@H]([C@@H](C)CC)NC1=O,,,aqueous buffer,pH 7.4,solubility,684 µM
Cc1nn(C)cc1-c1nc2c(N3CCN(Cc4ccc(Cl)cc4)CC3)c(Cl)cnc2[nH]1,"Phosphatidylinositol 4,5-bisphosphate 3-kinase catalytic subunit alpha isoform (PIK3CA, Homo sapiens, UniProt P42336, M1043I)","binding, competition with immobilised ligand",,1 µM,remaining binding,92%
COc1ccc(F)cc1C(=O)NCc1ccc(-c2nn([C@@H](C)C(F)(F)F)c(N)c2C(N)=O)cc1,,,"human, plasma","oral, 200 mg, single dose",Tmax,180 min
N=c1c2c(-c3ccccc3)c(-c3ccccc3)n(Cc3ccccc3)c2ncn1[C@H]1CC[C@H](O)CC1,,,"female minipig, plasma","intravenous, 0.25 mg/kg, single dose",AUC(0-t),14500 ng·h/mL
CCCC[C@@H]1NC(=O)[C@H](Cc2ccc(O)cc2)NC(=O)[C@@H]2CCCN2C(=O)[C@H](CC(=O)O)NC(=O)[C@H](C)NC(=O)[C@H](Cc2ccccc2)NC(=O)[C@@H]2CSCCC(=O)N3CN(CN(C3)C(=O)CCSC[C@@H](C(=O)N[C@@H](CNC(=O)CCOCCOCCOCCOCCOCCn3cc(CCC(=O)N[C@H]4CSCCC(=O)N5CN6CN(C5)C(=O)CCSC[C@H](NC(=O)[C@@H](CC(=O)O)NC(=O)[C@H](Cc5cccc7ccccc57)NC(=O)[C@@H]5CCCN5C4=O)C(=O)N[C@@H](CCSC)C(=O)N[C@@H](CCCCNC(=N)N)C(=O)N[C@@H](CC(=O)O)C(=O)N[C@@H](Cc4c[nH]c5ccccc45)C(=O)N[C@@H](CO)C(=O)N[C@@H]([C@@H](C)O)C(=O)N4CCC[C@H]4C(=O)N4C[C@H](O)C[C@H]4C(=O)N[C@@H](Cc4c[nH]c5ccccc45)C(=O)N[C@H](C(N)=O)CSCCC6=O)nn3)C(N)=O)NC1=O)C(=O)CCSC[C@H](NC(C)=O)C(=O)N[C@@H](CC(C)(C)C)C(=O)N1CCC[C@H]1C(=O)N[C@@H](CCC(=O)O)C(=O)N[C@H](C)C(=O)N1CCC[C@H]1C(=O)N[C@@H](Cc1ccc(O)cc1)C(=O)N2,,,"rat, plasma","intravenous, 2 mg/kg",Vd,0.84 L/kg
Nc1ncc(-c2nc(N3CCOCC3)nc(N3CCOCC3)n2)c(C(F)F)n1,"Serine/threonine-protein kinase ULK3 (ULK3, Homo sapiens, UniProt Q6PHR2)","binding, competition with immobilised ligand",,10 µM,remaining binding,60%

# Repeated from above:
Structure (SMILES),tested on,test,test system,setting,endpoint,result
COc1ccc(F)cc1C(=O)NCc1ccc(-c2nn([C@@H](C)C(F)(F)F)c(N)c2C(N)=O)cc1,,,"human, plasma","oral, 200 mg, single dose",Tmax,180 min
N=c1c2c(-c3ccccc3)c(-c3ccccc3)n(Cc3ccccc3)c2ncn1[C@H]1CC[C@H](O)CC1,,,"female minipig, plasma","intravenous, 0.25 mg/kg, single dose",AUC(0-t),14500 ng·h/mL
